# Experimental data gathered from unrelated publications.
# Each numbered part is a random draw from the data of one study; scales do not carry over between parts.

# Block 1 — method: protein binding microarray; form: double-stranded DNA, one strand shown; sample: in vitro; concentration: not given; baseline: not given; reading: higher = stronger binding
# Target: Histone acetyltransferase KAT6A, winged helix 1, GST fusion (KAT6A, Homo sapiens, UniProt Q92794, residues 1-85)
# Setting: 8-mer, flanks averaged, mean of 2 arrays, mostly near background
# Residues (chain): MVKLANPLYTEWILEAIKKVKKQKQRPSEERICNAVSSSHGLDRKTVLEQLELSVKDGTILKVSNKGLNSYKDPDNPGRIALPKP
Oligonucleotide,E-score
AATTTGGA,-0.329
ATGGTCTC,-0.145
GAGCGGGC,0.406
AAAGAGAG,-0.179
AGGGGCAT,-0.153
CGCAATAC,0.2
ACAACCCG,0.175
CGCAACCA,-0.0186

# Block 2 — action: inhibitor; concentration: 20 µM
# Target: Replicase polyprotein 1ab, nsp13 helicase (rep, Severe acute respiratory syndrome coronavirus 2, UniProt P0DTD1)
SMILES,inhibition [%]
CNC(=O)[C@H](Cc1ccccc1)NC(=O)[C@H](CC(C)C)[C@H](CSc1cccs1)C(=O)NO,-2.03
CN1CCc2c(c3ccccc3n2Cc2ccccc2)C1,2.15
C[C@H](N)Cc1cccc(O)c1,-1.13
O=C1c2ccccc2C(Cc2ccncc2)(Cc2ccncc2)c2ccccc21,-3.34
CCOc1c(N2CCOCC2)cnn(C)c1=O,3.75
COc1ccc(CCN)cc1OC,-0.16
CN1CCN(C(=O)c2cc3cc(Cl)ccc3[nH]2)CC1,2.85
CC1(C)CN(C(=O)c2ccc(-c3cccc4nc(NC(=O)C5CC5)nn34)cc2)C1,5.75
COc1cc(C(C)=O)ccc1O,9.32
CC[C@@H](C(=O)[C@@H](C)[C@@H](O)[C@H](C)[C@@H]1O[C@@H]([C@@H](CC)C(=O)O)CC[C@@H]1C)[C@H]1O[C@]2(C=C[C@@H](O)[C@]3(CC[C@@](C)([C@H]4CC[C@](O)(CC)[C@H](C)O4)O3)O2)[C@H](C)C[C@@H]1C,3.78
NC(=O)c1cc[n+](CC2=C(C(=O)O)N3C(=O)[C@@H](NC(=O)[C@@H](c4ccccc4)S(=O)(=O)[O-])[C@H]3SC2)cc1,43.4
COc1cc(C(C)=O)ccc1OCCCN1CCC(c2noc3cc(F)ccc23)CC1,9.63
CC(C)OC(=O)OCOP(=O)(CO[C@H](C)Cn1cnc2c(N)ncnc21)OCOC(=O)OC(C)C,8.05
CC1(C)S[C@@H]2[C@H](NC(=O)COc3ccccc3)C(=O)N2[C@H]1C(=O)O,-0.6
N#Cc1ccc(-c2ccc(S(=O)(=O)Nc3cccc(N)n3)cc2)cc1,-1.01
COc1cc(C)c(/C=C/C(C)=C/C=C/C(C)=C/C(=O)O)c(C)c1C,6.3
C1CCC(NC2CCCCC2)CC1,2.72
Cn1nc(C(C)(C)C)cc1C(=O)N[C@@H](Cc1cccc(Cl)c1)C(=O)NCC#N,2.21
NC1=NCCN1CC(=O)O,8
CS(=O)(=O)N1CCN(Cc2cc3nc(-c4cccc5[nH]ncc45)nc(N4CCOCC4)c3s2)CC1,7.45
COc1ccc([C@]2(C#N)CC[C@@H](C(=O)O)CC2)cc1OC1CCCC1,1.75
CCCNS(=O)(=O)Nc1ncnc(OCCOc2ncc(Br)cn2)c1-c1ccc(Br)cc1,1.32
c1ccc(OCc2ccc(CCCN3CCOCC3)cc2)cc1,2.2
CN(C)CCC(c1ccc(Cl)cc1)c1ccccn1 (stereo not drawn),7.86
C[C@H](Nc1ncnc2nc[nH]c12)c1cc2cccc(Cl)c2c(=O)n1-c1ccccc1,6.07

# Block 3 — method: protein-binding microarray; form: double-stranded DNA, one strand shown; sample: in vitro; concentration: 940 nM top; setting: 60-bp whole probe; added: salmon DNA 0.4 mg/ml; baseline: random background probes; reading: higher = stronger binding
# Target: Interferon regulatory factor 5, full length, phosphomimetic (IRF5, Homo sapiens, UniProt Q13568-2, residues 1-514, S451D/S453D/S456D/S462D)
# All sequences stand within: GCCTAGCAC … GTGCTAGGTCTTGATTCGCTTGACGCTGCTG
Oligonucleotide,fitted relative affinity [z-score]
GTTCTACCTCTGCCTTTTGT,1.14
TCAGGTTCAGATATAGGACT,-0.384
TTAGAACTGTGACTGGATTA,-0.488
GACGGTTTCCTTTCCATGAC,1.88
GACGCTCTCGGTTTCGGGAC,7.03
GACTAACTGAGTATCGAGAC,1.75
TTAGATTTCAGTCTCGAGTA,2.21
ACCACTCTTCCTTTACTTTC,2.64

# Block 4 — method: RNA Bind-n-Seq; form: RNA; sample: in vitro; concentration: 365 nM; baseline: no-protein control; reading: higher = stronger binding
# Target: RNA binding protein fox-1 homolog 2, RRM domain, GST-SBP tag (RBFOX2, Homo sapiens, UniProt O43251-10, residues 100-194)
# Setting: natural RNA segment, single round, ends assumed
# All sequences stand within: GGGAGUUCUACAGUCCGACGAUC … UGGAAUUCUCGGGUGCCAA
# Target sequence (chain): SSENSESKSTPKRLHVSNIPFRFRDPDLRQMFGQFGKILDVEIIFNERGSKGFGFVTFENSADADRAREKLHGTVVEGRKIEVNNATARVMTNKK
Oligonucleotide,RBNS enrichment (R)
GCCAUUCAUUCUACAGUCUUCCCAAGGUGUCCUAGUCUCUCCCAGGCCCCUGUGAUUUUCUCACAUAGGUGUCUUCUCAGUUCUGUCAAAUUCCUGAUGUUCUGCAAUAC,0.414
AUGCCAACAAGAAUGCAUUGAUAUUGUGAACAUUUGUGAUAUAUGUAUUAAUAAAUAGAGCAAUUACAAGCAGCUGUGUUCUGGUUCUGUUCUUUGGUUCUUAUGAAAGU,0.437
UGACGUAGUGCUCUCAUGGGCUCACCUGGGCCCAAGGCACAGCCAGGGCACAGUUAGGCCUGGAUGUUUGCCUGGUCCGUGAGAUGCCGCGGGUCCUGUUUCCUUACUGG,0.696
UAGAUUUAUUUUGAGAAGUAAUUGUUCACUCUUUACUUUUGAGGCAGCCAUUAGGUUGAAAGUAUAUAUUUAUCAUAUAAAACUUGAUGCGUUUUGCACUACUCUUUCCA,0.436
CCCAGGAUCUCAGCCCCAGGCUGGUUGUUUCUACAAAUCUCUCUCAAAUGUAUUAUUUUGGUGACAAAAAUGAAGGAGCUUUGUAAAUUUUUUUUAAAAUUAUGAAUCAU,0.76
GUUUUUUCCAGGGAAAACAAUGUGCUUCCUCAUGUUCAUGCCAAAUUGCACAAAGUGUAGGUAUUCAUGUUAAUGGAUAUUUAAGCACAGUCCUAGAAGGUAUGUUUUAA,0.348
AGCCAGGCUUAUGCUGAAACCGGGGAAGUCUGACAUAUGCAGGAAACUCUUUUGAAAUAACUUUGGUGCCCAGGCCAAGUAGAAUGAGAUGAGACUGAGUUUGGCCUCUG,1.78
CCAAAAACAGAAAACAUGAUGUUGACUCAUGUAAUUUAGUCCAUUUUAGCAGAGCCUUUAGUGUUAACACCAGUGGCGAGGAGCAUUGCAUAUUCUCUGUCAGCAGCAGC,0.771

# Block 5 — method: RNA Bind-n-Seq; form: RNA; sample: in vitro; concentration: 1 µM; setting: whole 134-nt RNA, ends assumed; added: 150 mM KCl; baseline: input library; reading: higher = stronger binding
# Target: Ras GTPase-activating protein-binding protein 1, C-terminal RGG region (G3BP1, Homo sapiens, UniProt Q13283)
# Sequence of UniProt Q13283 (whole entry, looked up): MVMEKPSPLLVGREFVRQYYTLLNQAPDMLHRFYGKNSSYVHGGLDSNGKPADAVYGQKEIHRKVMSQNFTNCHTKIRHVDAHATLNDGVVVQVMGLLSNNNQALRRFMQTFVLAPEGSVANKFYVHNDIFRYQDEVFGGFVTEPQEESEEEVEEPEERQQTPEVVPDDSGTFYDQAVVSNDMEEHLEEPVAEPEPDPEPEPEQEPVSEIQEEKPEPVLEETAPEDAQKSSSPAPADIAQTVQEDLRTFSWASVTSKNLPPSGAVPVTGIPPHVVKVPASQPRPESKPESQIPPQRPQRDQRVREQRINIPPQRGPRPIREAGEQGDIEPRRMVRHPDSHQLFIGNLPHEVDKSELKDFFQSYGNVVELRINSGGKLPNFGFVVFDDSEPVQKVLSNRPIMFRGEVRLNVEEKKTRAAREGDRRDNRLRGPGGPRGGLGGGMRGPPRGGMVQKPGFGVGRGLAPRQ
# All sequences stand within: GGGAGUUCUACAGUCCGACGAUC … UGGAAUUCUCGGGUGUCAAGG
Oligonucleotide,log2 enrichment
UAACUUUGGAGGAGGAUCUGAUGGAUAUGGCAGUGGACGUGGAUUUGGGGAUGGCUAUAAUGGGUAUGGAGGAGGACCUGGAGGUGGCAA,-1.43
AGUCCUGUGCUACACAUCGUAUGUACCGAAUCGGGGAGGGGUUUUUUUGGGGUGGGGAAAGUAUUAUGUUACGCCGUUCGGAUCUGCACU,1.63
UGGCCCUGGUGGCAUGCGGGGAGGAAGAGGUGGCCUCAUGGAUCGUGGUGGUCCCGGUGGAAUGUUCAGAGGUGACCGUGGUGGAGACAG,2.82
UGGGAGGUGGAUUUUGUUUAUUUUUUUAGCUCAUUUCCAGGGGUUGGAAUUUUUUUUUAAUAUGUGUCAUGAAUAAAGUUGUUUUUGAAA,2.44
AGUCCUGUGCUACACAUCGUAUGUACCGAAUCGGGUUUGGGUUUUUUUGGGUUUGGGAAAGUAUUAUGUUACGCCGUUCGGAUCUGCACU,0.697

# Mixed results — concentration: 10 µM
Structure (SMILES),tested on,test,test system,setting,scale,quantity,result
COC(=O)C1=C(C)NC(C)=C(C(=O)OC)C1c1ccccc1[N+](=O)[O-],HEK-293T,,VSV pseudotyped with SARS-CoV-2 spike,16 h,,pseudovirus infection,81.6%
CCCCCCCCCCCCCCCCCC[S+](CCC)c1ccccc1C(=O)OCC (stereo not drawn),SARS-CoV-2,cytopathic effect,Vero E6,,,inhibition,-33.5%
CC12CC3CC(C)(C1)CC(N)(C3)C2,HEK-293T,"pseudovirus infection, FDA-approved drug library screen",VSV pseudotyped with SARS-CoV-2 spike,16 h,baseline: vehicle-treated,GFP-positive cells,83.1%
